Measurements gathered from unrelated publications.
Each numbered part is a random draw from the data of one study; scales do not carry over between parts.

Block 1 — method: aptamer microarray, sandwich; form: DNA with 2'F-ANA; medium: in vitro; tested at: 200 nM; added: Cy3 exosite-II aptamer, 400 nM; reading: higher = stronger binding; strand: GGTTGGTGTGGTTGG
Target: Prothrombin, mature alpha-thrombin (F2, Homo sapiens, UniProt P00734)
Notes: whole 15-mer aptamer, many near background
`2'F-ANA at 1 2 4 6 8 10 13 14 15` — result for “mean fluorescence intensity”: 57.5 a.u.
Under “mean fluorescence intensity”, `2'F-ANA at 1 3 4 5 7 8 10 13` is recorded as 46.5 a.u.
`2'F-ANA at 1 3 6 7 8 9 12 13 15` — result for “mean fluorescence intensity”: 433 a.u.
Under “mean fluorescence intensity”, `2'F-ANA at 2 4 5 8 9 11 12 15` is recorded as 271 a.u.
For `2'F-ANA at 1 2 6 7 8 9 11 12 13`, “mean fluorescence intensity” read 217 a.u.
`2'F-ANA at 2 4 9 12 14` — result for “mean fluorescence intensity”: 122 a.u.
For `2'F-ANA at 3 7 11 13 15`, “mean fluorescence intensity” read 972 a.u.
For `2'F-ANA at 1 6 7 9 10 11 13 14`, “mean fluorescence intensity” read 46.9 a.u.
`2'F-ANA at 1 5 6 9 10 13 14` — result for “mean fluorescence intensity”: 45.2 a.u.
For `2'F-ANA at 1 2 3 4 6 8 10 11 12 13 14`, “mean fluorescence intensity” read 72.9 a.u.
For `2'F-ANA at 1 3 4 5 6 9 10 12 13 14`, “mean fluorescence intensity” read 53.2 a.u.
For `2'F-ANA at 2 3 5 11 15`, “mean fluorescence intensity” read 80.7 a.u.
Under “mean fluorescence intensity”, `2'F-ANA at 4 7 8 10 12 13` is recorded as 111 a.u.
Under “mean fluorescence intensity”, `2'F-ANA at 2 4 8 9 12 13 14 15` is recorded as 102 a.u.
For `2'F-ANA at 3 5 6 7 10 12 14`, “mean fluorescence intensity” read 54.7 a.u.
Under “mean fluorescence intensity”, `2'F-ANA at 1 2 4 6 8 9 11 13` is recorded as 82.9 a.u.

Block 2 — method: protein-binding microarray; form: double-stranded DNA, one strand shown; medium: in vitro; tested at: 940 nM top; notes: 60-bp whole probe; added: salmon DNA 0.4 mg/ml; baseline: random background probes; reading: higher = stronger binding; constant ends, left off below: GCCTAGCAC … GTCTTGATTCGCTTGACGCTGCTG
Target: Interferon regulatory factor 5, full length, phosphomimetic (IRF5, Homo sapiens, UniProt Q13568-2, residues 1-514, S451D/S453D/S456D/S462D)
For `TTAGGACTGCTTTTACTTTAGTGCTAG`, “fitted relative affinity” read 0.24 z-score.
`GACGATCTCGGACTGGAGACGTGCTAG` — result for “fitted relative affinity”: -0.131 z-score.
`TTAGGTTTCGGTATAGGTTAGTGCTAG`: “fitted relative affinity” 15.1 z-score.
`TCAATTTTTAGGATGGGACTGTGCTAG` — result for “fitted relative affinity”: -0.102 z-score.
For `GACGGACTGGAGTATCGGGACGTGCTA`, “fitted relative affinity” read 0.451 z-score.
For `GACGGTATCCTTCTCGTGACGTGCTAG`, “fitted relative affinity” read 0.414 z-score.
`TAATATATATATTGTTAGTGTGTGCTA`: “fitted relative affinity” 0.134 z-score.
Under “fitted relative affinity”, `GACGGTATCGACTTTAGGGACGTGCTA` is recorded as 3.81 z-score.
For `TTAGGTATCGGTCGCGGTTAGTGCTAG`, “fitted relative affinity” read 9.13 z-score.
`TTATGTCTCGGTATCGGTTAGTGCTAG` — result for “fitted relative affinity”: 6.59 z-score.
`GCCGATATCAGTTTCGAGACGTGCTAG` — result for “fitted relative affinity”: 4.35 z-score.
`GACGGTCTCGGTACCGGGACGTGCTAG`: “fitted relative affinity” 3.91 z-score.
Under “fitted relative affinity”, `TTAGAACTGCTTCTCCTTTAGTGCTAG` is recorded as -0.237 z-score.
`CTAAAAATCCCATTAAATTTGTGCTAG` — result for “fitted relative affinity”: 0.325 z-score.
Under “fitted relative affinity”, `TTAGGACTGCTTACCCTTTAGTGCTAG` is recorded as -0.025 z-score.
For `AATCATTCACCTGTCGTTGAGTGCTAG`, “fitted relative affinity” read -0.145 z-score.
`GACGTTCTCGGTTTCGGGACGTGCTAG`: “fitted relative affinity” 6.61 z-score.
`TTAGGACTGCTTTTGCTTTAGTGCTAG`: “fitted relative affinity” -0.238 z-score.
Under “fitted relative affinity”, `CACTCTCTGGGCTGTGGGTTTGTGCTA` is recorded as 0.599 z-score.
For `GACGAACTGGGGTTTCAAGACGTGCTA`, “fitted relative affinity” read 0.0577 z-score.
For `CAAAAATGATTGGTTGAACAGTGCTAG`, “fitted relative affinity” read -0.216 z-score.

Block 3 — method: RNA Bind-n-Seq; form: RNA; medium: in vitro; tested at: 365 nM; baseline: no-protein control; reading: higher = stronger binding
Target: RNA binding protein fox-1 homolog 2, RRM domain, GST-SBP tag (RBFOX2, Homo sapiens, UniProt O43251-10, residues 100-194)
Notes: natural RNA segment, single round, ends assumed
Constant ends, left off below: GGGAGUUCUACAGUCCGACGAUC … UGGAAUUCUCGGGUGCCAA
Residues (chain): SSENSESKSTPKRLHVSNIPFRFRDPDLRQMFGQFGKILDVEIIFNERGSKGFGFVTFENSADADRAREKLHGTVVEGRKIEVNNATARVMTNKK
Under “RBNS enrichment (R)”, `GGGUCAGAGGGAGGCCGGCUGCUUCCUGCCCCCACCCUUUCCCCGGGCCUGCUGUGCUGCUUUUGUGCCAAGGUUAGCCAGUCCCCCCUGUUGUGUUCCAUGUGCUUUCA` is recorded as 0.319.
`AUGGACUCAGAGCUGUGUGCUUUGCUCCUGCAUCUUGUUGAGGUGCUGUUCCAGCUUUGCAUUUCUGUCAAGUAGAGGCGAAUAUAUAAACAGUGUGGUUGAAUACAUUU` — result for “RBNS enrichment (R)”: 0.772.
Under “RBNS enrichment (R)”, `CAAAAUGAGGGAGAAACAUUUGCCUGCCUUGUAAUAACAAGACUCAGUGCUUAUUUUUUAAACUGCAUUUUAAAAAUUGGAUAGUAUAAUAACAAUAAGGAGUAAGCCAC` is recorded as 0.35.
`CUGGAAGAGAGUGGAACACCUUGGGUCCUGCCUGUUCAGGGUACUGAGGCCAAGAUGAGAAGUGACUCUCUCAAGGUCACACAGAUAGUGAUAGAACAAGAGCCCAGGCU`: “RBNS enrichment (R)” 0.209.
`UUAACUCUUCAGUAGAGGUUUACAAAGAGUACAAAGGUUAAAUUACAAAUUCAUUCCCAGCCUAGGCUCUGGGCACAUUUCCUGUUCUUGAAUUCUGCUCCUGAAGAGGG`: “RBNS enrichment (R)” 0.471.
For `UUUUUUAUAAGCAAAAUUUUGUAUGUUAUUGUAUAGUAUUUAUUUGAUCUUAUUUACUUUAUGCUACCUCUCCCACACUGGUUUUAUUUGUAAUUUGCAUUUAUAUACUC`, “RBNS enrichment (R)” read 1.02.
`GCUCUCCAAUGAGAGCCUGACUGGCUUCUAGAGCAGGCUGUCACAGAAGGGGAGGUAGGGUCGACUGUGAGUGCAUGCCAUCUUUGUCAGACUGGUGACAGAGUUCCUGU` — result for “RBNS enrichment (R)”: 3.88.
Under “RBNS enrichment (R)”, `UCCAACUCCUGGCAAUCCUCCUGCCUCUGUUUCUCAGUUGCUCUGACAACAGGUGUGUACCACCACUCCUGACUUCCCUGCCCAAACUUCAUAUCCUACUUGUUAAUAGC` is recorded as 0.492.
For `UGAGCAACAUCCCUAGCCUUCAGAAUAGAAUUUUUGAUGUUGGAAAUCCUGUAUUUAAAGGAAACCUUAAUUAUCAAUGGAUUUAUGAAGGAAAGUUAAAAACAAAUAUG`, “RBNS enrichment (R)” read 0.475.
For `UCCAAACAGCAUCAUCCAAAUCCAACUGAGGACAGACGGACUGUCCCGGCCUGGGCCUGGGCUCCUAACACCUGACUGCCAAAGGGCUCCAAUGUGCAUUGUGGACUCGC`, “RBNS enrichment (R)” read 1.89.
`GACAAACACCCUGUUGAACUGAGAGAAGUAAACUCCAGAAGGGAACCAAGAUUUCCUCCCUUUCCUGGUGAGUGUUUCCAUUAUUCCGUUAAGGUUUAAUAUGCAUUCAG` — result for “RBNS enrichment (R)”: 0.233.
Under “RBNS enrichment (R)”, `GGAGCCCAGCUAUUUACAAAGUACACACGAGGGAGCAGGCUGGUCAUUGACUUCGGGCUGGACCGUUGCCCUCUGAGCAGAGAACAGACCCAUUUCUGGGAGCUGCCCGA` is recorded as 0.498.

Block 4 — method: RNA Bind-n-Seq; form: RNA; medium: in vitro; tested at: 200 nM; notes: whole 134-nt RNA, ends assumed; added: 150 mM LiCl; baseline: input library; reading: higher = stronger binding; each molecule: 7-deaza-guanosine replaces G
Target: Fragile X messenger ribonucleoprotein 1, C-terminal low-complexity region (Fmr1, Mus musculus, UniProt P35922)
Constant ends, left off below: GGGAGUUCUACAGUCCGACGAUC … UGGAAUUCUCGGGUGUCAAGG
`UGGCCCUGGUGGCAUGCGGGGAGGAAGAGGUGGCCUCAUGGAUCGUGGUGGUCCCGGUGGAAUGUUUAGAGGUGGCCGUGGUGGAGACAG` has a log2 enrichment of -0.0245.
With `UGUGCUACACAUCGUAUGUACCGAAUCGGGGAAAAAAAGGGGAAAAAAAGGGGAAAAAAAGGAAAGUAUUAUGUUACGCCGUUCGGAUCU` the log2 enrichment was 0.797.
With `UCAAGUCCUGUGCUACACAUCGUAUGUACCGAAUCGGGAAAGGAAAGGGAAAGGGAAAGUAUUAUGUUACGCCGUUCGGAUCUGCACUUC` the log2 enrichment was -0.971.
`GCAGGAAGUAAAAACAAAUGGAAAUGCUUCGGAUAGUGGCAGGGGUGGGGGUUGCUAAGGAAAGGGUGGGAUGGGAGUAAAUAAAGAGUU` has a log2 enrichment of 1.27.
For `AGUCCUGUGCUACACAUCGUAUGUACCGAAUCAAAUUUUUAAACCCAAAUUUUUAAAAAAGUAUUAUGUUACGCCGUUCGGAUCUGCACU`, the log2 enrichment was -2.54.
`CACAGACAACACGCACCCACACAGACACAGAGGGAACGGGUUGGGAUGGGGACAGGGUGCACAGCAGGGCGGGGUAGGACCCCAGCCCCU` gave a log2 enrichment of -1.71.
`UGCAGCAGCGCCAGGAAUCGAGGAUGGUAAAAUGACCCAGGGGAAGAAGAAGAAACGGGCCGCGAACCGCAGUAUCAUGCUGGCCAAGAA` gave a log2 enrichment of 0.516.
The log2 enrichment of `AAGUCCUGUGCUACACAUCGUAUGUACCGAAUCGGGUUUUGGUUUUGGGUUUUGGGAAAGUAUUAUGUUACGCCGUUCGGAUCUGCACUU` is reported as -1.85.
`CUCAGCAGACCCUGAAGGACACUUUGAGACACCAAUCUGGAUUGAGCGGGUGGUGAUAAUAGGGGCUGGAAAGCCAGCAGCUGUGGUACU` has a log2 enrichment of -1.16.
The log2 enrichment of `GCAGGAAGUAAAAACAAAUGGAAAUGCUUCGGAUAGUGGCAGGGGUCGGGGUUGCUAAGGAAAGGGUGGGAUGGGAGUGGGUAAAGAGUU` is reported as 1.48.
For `CCUCAAGUCCUGUGCUACACAUCGUAUGUACCGAAUCGGUUUUUGGAGGUGGAAAGUAUUAUGUUACGCCGUUCGGAUCUGCACUUCCAG`, the log2 enrichment was -0.195.

For quick reference, copied from above (block 4):
With `UGUGCUACACAUCGUAUGUACCGAAUCGGGGAAAAAAAGGGGAAAAAAAGGGGAAAAAAAGGAAAGUAUUAUGUUACGCCGUUCGGAUCU` the log2 enrichment was 0.797.
With `UCAAGUCCUGUGCUACACAUCGUAUGUACCGAAUCGGGAAAGGAAAGGGAAAGGGAAAGUAUUAUGUUACGCCGUUCGGAUCUGCACUUC` the log2 enrichment was -0.971.
`GCAGGAAGUAAAAACAAAUGGAAAUGCUUCGGAUAGUGGCAGGGGUGGGGGUUGCUAAGGAAAGGGUGGGAUGGGAGUAAAUAAAGAGUU` has a log2 enrichment of 1.27.
For `AGUCCUGUGCUACACAUCGUAUGUACCGAAUCAAAUUUUUAAACCCAAAUUUUUAAAAAAGUAUUAUGUUACGCCGUUCGGAUCUGCACU`, the log2 enrichment was -2.54.
`CACAGACAACACGCACCCACACAGACACAGAGGGAACGGGUUGGGAUGGGGACAGGGUGCACAGCAGGGCGGGGUAGGACCCCAGCCCCU` gave a log2 enrichment of -1.71.
`UGCAGCAGCGCCAGGAAUCGAGGAUGGUAAAAUGACCCAGGGGAAGAAGAAGAAACGGGCCGCGAACCGCAGUAUCAUGCUGGCCAAGAA` gave a log2 enrichment of 0.516.
The log2 enrichment of `AAGUCCUGUGCUACACAUCGUAUGUACCGAAUCGGGUUUUGGUUUUGGGUUUUGGGAAAGUAUUAUGUUACGCCGUUCGGAUCUGCACUU` is reported as -1.85.
`CUCAGCAGACCCUGAAGGACACUUUGAGACACCAAUCUGGAUUGAGCGGGUGGUGAUAAUAGGGGCUGGAAAGCCAGCAGCUGUGGUACU` has a log2 enrichment of -1.16.
The log2 enrichment of `GCAGGAAGUAAAAACAAAUGGAAAUGCUUCGGAUAGUGGCAGGGGUCGGGGUUGCUAAGGAAAGGGUGGGAUGGGAGUGGGUAAAGAGUU` is reported as 1.48.
